Measurements from different studies.
Protocols differ between the studies behind these lines. Numbers after ± are the reported error.
Organism: Salmonella typhimurium

Under “revertant colonies per plate”, `CC(C)N(C)N=O` is recorded as 28.3 ± 1 (mutagenicity, Ames plate incorporation; TA98; 150 µg/plate, 3 d, without S9, methanol).
`O=[N+]([O-])c1ccc(N2CCN(CCC(O)c3ccc(F)cc3)CC2)c(C(F)(F)F)c1` (stereo not drawn) has an induction factor of 1.1 (genotoxicity, SOS/umu test; TA1535/pSK1002; 0.002 mg/mL, 4 h, with S9, full range).
`O=NN1CCN(C2CCCC2)CC1`: “revertant colonies per plate” 20.3 ± 6 (mutagenicity, Ames plate incorporation; TA1535; 2500 µg/plate, 3 d, without S9, methanol).
For `O=[N+]([O-])c1ccc(N2CCC(NCCC(O)c3ccc(F)c4ccccc34)CC2)c(C(F)(F)F)c1` (stereo not drawn), the survival was 113% (SOS/umu test; TA1535/pSK1002, TGA medium; 3.05e-05 mg/mL, 4 h, without S9).
`CC(=O)N1CCC(C(=O)N2CCN3C(=O)c4cc(-c5ccccc5)ccc4NC(=O)C3C2)CC1` (stereo not drawn): “revertants per plate” 33.5 (TA98; 5.0 µg/plate, with: rat liver S9).
`O=[N+]([O-])c1ccc(NC2CCNCC2)c(C(F)(F)F)c1` gave a survival of 89% (SOS/umu test; TA1535/pSK1002; 0.063 mg/mL, 4 h, without S9, full range).
`CNC(=O)c1c(N(C)N=O)ncn1C` — result for “revertant colonies per plate”: 117 ± 9 (mutagenicity, Ames plate incorporation; TA100; 5000 µg/plate, without S9, methanol).
For `Fc1ccc(C2=CCNCC2)cc1`, the survival was 104% (SOS/umu test; TA1535/pSK1002; 0.001 mg/mL, 4 h, without S9 activation).
`COc1cccc(-c2n[nH]c(SCc3ccccn3)n2)c1OC` — result for “revertant colonies per plate”: 34 (Ames test, plate incorporation; TA98; 0.50 mg/plate, with rat liver S9).
With `N#C[C@@]1(n2ccc(N)nc2=O)O[C@H](CO)[C@@H](O)[C@H]1O` the viability was 105% (TA1535; 25 µM, without S9).
Under “revertant colonies per plate”, `COCCN(CCOC)N=O` is recorded as 16 ± 6 (mutagenicity, Ames plate incorporation; TA1535; 500 µg/plate, 3 d, without S9, methanol).
`Cc1cc(C(=O)NC(C)(C)COc2cccc3c2C(N)=NS(=O)(=O)N3)cc(C)n1` has a revertant ratio of 0.8 (Ames test, confirmatory; TA100; 5000 µg/plate; relative to: solvent control).

Some of these lines once more:
`O=[N+]([O-])c1ccc(N2CCN(CCC(O)c3ccc(F)cc3)CC2)c(C(F)(F)F)c1` (stereo not drawn) has an induction factor of 1.1 (genotoxicity, SOS/umu test; TA1535/pSK1002; 0.002 mg/mL, 4 h, with S9, full range).
`Cc1cc(C(=O)NC(C)(C)COc2cccc3c2C(N)=NS(=O)(=O)N3)cc(C)n1` has a revertant ratio of 0.8 (Ames test, confirmatory; TA100; 5000 µg/plate; relative to: solvent control).
